Published values pooled from the literature.
Lines come from different studies, so protocols differ.
B1: acsA (Pseudomonas chlororaphis, UniProt Q5CD72); chain MRDYEHVVESFDYLQSATQDLHGELTALNACVECCDRHAHGEAVALYCEAQDGHAERYRFRDLQRQAARFGNFLREQGVKPGDRVAGLMPRTVELLIAILGTWRIGAVYQPLFTAFGPKAIEQRLNCSNARWIVTDPHNRPKLDDVTDCPSIVVTGGAPQNPADHHFWSALNRQADDCAPVLLDASAPFLLMCTSGTTGPAKPLEVPLSAILAFKGYMRDAIDLRADDRFWNLADPGWAYGLYYAVTGPLACGYATLFYDGPFTVESTRHIIAKYAINNLAGSPTAYRFLIAAGAEFADAVRGRLRAVSSAGEPLNPQVVRWFAEQLGVVIHDHYGQTEIGMVLCNHHGLRHPVREGSAGYAVPGYRIVVLDKAHRELPAGQPGVLAVDRERSPLCWFDGYLGMPTQAFAGRYYLSGDIVELNDDGSISFVGRNDDLITTSGYRVGPFDVESALIEHPAVVEAAVIGKPDPQRTELIKAFVVLNTPYLPSPELAEELRLHVRQRLAAHAYPREMEFVDHLPKTPSGKLQRFILRNQEIAKQQALG
B2: enzyme F206A/H226Y (Oryctolagus cuniculus, UniProt P00178); chain GRLPPGPSPLPVLGNLLQMDRKGLLRSFLRLREKYGDVFTVYLGSRPVVVLCGTDAIREALVDQAEAFSGRGKIAVVDPIFQGYGVIFANGERWRALRRFSLATMRDFGMGKRSVEERIQEEARCLVEELRKSKGALLDNTLLFHSITSNIICSIVFGKRFDYKDPVFLRLLDLFFQSASLISSFSSQVFELFPGFLKYFPGTHRQIYRNLQEINTFIGQSVEKHRATLDPSNPRDFIDVYLLRMEKDKSDPSSEFHHQNLILTVLSLFFAGTETTSTTLRYGFLLMLKYPHVTERVQKEIEQVIGSHRPPALDDRAKMPYTDAVIHEIQRLGDLIPFGVPHTVTKDTQFRGYVIPKNTEVFPVLSSALHDPRYFETPNTFNPGHFLDANGALKRNEGFMPFSLGKRICLGEGIARTELFLFFTTILQNFSIASPVPPEDIDLTPRESGVGNVPPSYQIRFLAR
B3: enzyme S253A (Arabidopsis thaliana, UniProt Q9LJK1); chain EKCQEWLERVDSVTYSRDFTKDPIFISGSNKDFKSCSVDCVMGFTSDKKPDAAFGLSHQPGTLSIIRSMESAQYYQENNLAQARRKGYDIVMTTSLSSDVPVGYFSWAEYDIMAPVQPKTEKALAAAFISNCAARNFRLQALEALMKTNVKIDSYGGCHRNRDGAVEKVEALKHYKFSLAFENTNEEDYVTEKFFQSLVAGSVPVVVGAPNIEEFAPSPDSFLHIKQMDDVKAVAKKMKYLADNPDAYNQTLRWKHEGPSDSFKALIDMAAVHSSCRLCIFVATRIREQEEKSPEFKRRPCKCTRGSETVYHLYVRERGRFDMESIFLKDGNLTLEALESAVLAKFMSLRYEPIWKKERPASLRGDGKLRVHGIYPIGLTQRQALYNFKFEGNSSLSTHIQRNPCPKFEVVFV

| Substance | target or system | test | system | setting | how to read | quantity | value |
| --- | --- | --- | --- | --- | --- | --- | --- |
| enzyme (UniProt F0RRL2) | OC[C@H]1O[C@@](CO)(O[C@H]2O[C@H](CO)[C@@H](O)[C@H](O)[C@H]2O)[C@@H](O)[C@@H]1O | steady-state kinetics |  | pH 5.5, 37 °C, apparent |  | Km | 53500 µM |
| enzyme K123A (Homo sapiens, UniProt Q08623) | O=c1[nH]cc([C@@H]2O[C@H](COP(=O)(O)O)[C@@H](O)[C@H]2O)c(=O)[nH]1 | steady-state kinetics |  | pH 7, 25 °C |  | Km | 1.8 µM |
| B1 (acsA) | CC(C)CC(=O)O | steady-state kinetics |  | pH 7 |  | Km | 9000 µM |
| enzyme (Lacticaseibacillus rhamnosus, UniProt A0A7S7JIA0) | C[C@@H]1O[C@@H](Oc2ccc([N+](=O)[O-])cc2)[C@@H](O)[C@H](O)[C@@H]1O | steady-state kinetics |  | pH 5, 40 °C |  | Km | 1320 µM |
| enzyme (Thermothielavioides terrestris, UniProt G2R650) | Oc1ccc(/C=C/c2cc(O)cc(O)c2)cc1 | steady-state kinetics |  | pH 8, 45 °C |  | Km | 81 µM |
| GSGAGSETVV | human MAGI1-2/6 PDZ construct (MBP fusion) | automated holdup | peptide, crude extract | concentration not given, uncorrected, unit not given | reference: biotin control resin, higher = stronger binding | binding intensity | 0.197 |
| DLLQWQTKL | Jurkat T cells expressing 1G4 TCR | NFAT-eGFP reporter, flow cytometry | peptide | concentration not given, HLA-A*02:01 NY-ESO system |  | reporter activation | 0.17% |
| B2 (enzyme F206A/H226Y) | CCOc1ccc2c(C(F)(F)F)cc(=O)oc2c1 | steady-state kinetics |  | 37 °C, with: 7-EFC |  | Km | 58.5 µM |
| HNL C81L/E79H/G176S/H103V/K236M/N104A/T11G/V106F (Hevea brasiliensis) | CC(=O)Oc1ccc([N+](=O)[O-])cc1 | steady-state kinetics |  | pH 7.2, 22 °C |  | Km | 160 µM |
| B3 (enzyme S253A) | C[C@@H]1O[C@H](OP(=O)(O)OP(=O)(O)OC[C@H]2O[C@@H](n3cnc4c(=O)[nH]c(N)nc43)[C@H](O)[C@@H]2O)[C@@H](O)[C@H](O)[C@@H]1O | steady-state kinetics |  | pH 6.5, 30 °C |  | Km | 100 µM |
| QSARYRDTEL | human MAGI1-2/6 PDZ construct (MBP fusion) | automated holdup | peptide, purified PDZ protein | concentration not given, unit not given | reference: biotin control resin, higher = stronger binding | binding intensity | 0.0402 |
| enzyme (Pseudomonas aeruginosa, UniProt Q9I5Q5) | CC(=O)N[C@H]1[C@@H]2OC[C@@H](O2)[C@@H](O)[C@@H]1O[C@H](C)C(=O)O | steady-state kinetics |  | pH 7.5, apparent |  | Km | 500 µM |
| bglA (Acetivibrio thermocellus, UniProt P26208) | O=[N+]([O-])c1ccc(O[C@@H]2O[C@H](CO)[C@@H](O)[C@H](O)[C@H]2O)cc1 | steady-state kinetics |  | pH 5.5, 60 °C |  | Km | 5980 µM |
| Teicoplanin |  |  | human serum | three freeze-thaw cycles |  | freeze-thaw stability | stable |
| GLFQWIAQA | Jurkat T cells expressing 1G4 TCR | NFAT-eGFP reporter, flow cytometry | peptide | concentration not given, HLA-A*02:01 NY-ESO system |  | reporter activation | 0.16% |
